Measurements pooled from the literature.
Lines come from different studies, so protocols differ. Several values in a cell are separate wells, animals, samples, runs or records. ± gives the spread as reported. In brackets after ≈: the same amount, converted by molar mass.

`C=CC(=O)Nc1cc(Nc2nccc(-c3c[nH]c4ccccc34)n2)c(OC)cc1N(C)CCN(C)C` has a recovery of 79.4% (storage stability; human dried blood spots; 24 h, on ice, LLOQ level).
For `CNC(=O)C[C@H](Cc1ccc(C#N)cc1)NC(=O)c1cc(-c2ccc(CN[C@H](C)c3ccc(C)cc3)o2)ccc1Cl`, the Papp A→B was 37 nm/s (Caco-2).
The logP of `Cc1nc(C)c(-c2ccnc(Nc3cccc(C#N)c3)n2)s1` is reported as 3.89 (octanol/buffer; pH 11).
`Nc1ccc2cc(/C=C/C(=O)c3ccc(O)cc3)ccc2c1` has an excitation maximum of 402 nm (toluene; 20 °C).
`O=C(Nc1cnccc1-c1ccc([18F])cc1)c1ccnc(NC(=O)C2CC2)c1` gave an SUV of 15.3 (FVB/NJ mice (both sexes), urine; intravenous, dose not given, 120 min, added: tariquidar 15 mg/kg i.v. pre-dose).
For `O=C([O-])CN1CCN(CC(=O)[O-])CCN(CC(=O)NCC2CCC(C(=O)NC(Cc3ccc4ccccc4c3)C(=O)NCCCCC(NC(=O)NC(CCC(=O)O)C(=O)O)C(=O)O)CC2)CCN(CC(=O)[O-])CC1.[68Ga+3]` (stereo not drawn), “maximum tumour uptake” read 9.27 ± 1.2 %ID/g (micro-PET/CT; mouse 22Rv1 xenograft, tumour; 4 h post-injection).
`O=C(Nc1cnccc1-c1ccc([18F])nc1)c1ccnc(NC(=O)C2CC2)c1` gave an SUV of 0.074 (ex vivo gamma counting; GSK-3β transgenic mice, early-stage, hippocampus; intravenous, 120 min, mean, P-gp inhibitor pretreatment, added: tariquidar 15 mg/kg iv).
`COc1ccnc(C(=O)N[C@H]2COC(=O)[C@H](Cc3ccccc3)[C@@H](OC(=O)C(C)C)[C@H](C)OC2=O)c1O` has a storage stability of 9 months (bovine fat; -18 °C).
`CCN(CC)c1ccc(-c2oc3cc4ccccc4cc3c(=O)c2O)cc1` gave a CO yield of 1.01 (DMSO; added: visible light 445-465 nm).
The half-life of `CCCC[C@H](OC(C)=O)c1ccccc1C(=O)O` is reported as 16.8 ± 1.8 min (beagle dog, both sexes, whole blood; intravenous, 5 mg/kg, single dose, fitted within 1 h).
For `C=C(NC(=O)c1csc(-c2nc3c(cc2O)-c2nc(cs2)C(=O)NC(C(C)O)C(=O)NC(=C(C)OC)c2nc(cs2)C(=O)NC2c4nc(cs4)C(=O)NC(COC(=O)c4c5c6c(cccc6n4O)COC(=O)C(OC4CC(C)(O)C(N(C)C)C(C)O4)C2OC5)c2nc-3cs2)n1)C(N)=O` (stereo not drawn), the half-life was 55.8 ± 7.8 min (cynomolgus monkey, both sexes, plasma; intravenous infusion, 1.5 mg/kg twice daily, 6 to 12 h, second dose).
The tissue/plasma ratio of `O=C1NCC(COc2cccc3c(NCc4ccsc4)nc(Cl)nc23)O1` (stereo not drawn) is reported as < 0.196 (C57BL/6 mouse, heart; oral, 30 mg/kg, 0.5 h; reference: heart over plasma).
`COc1cccc(OC)c1-c1cc(C(=O)NC2(C(=O)O)C3CC4CC(C3)CC2C4)nn1-c1ccc(C(=O)N(C)CCOCCOCCN(C)C(=O)[C@H](CCCCNC(=O)[C@H](CC(C)C)NC(=O)C2OC2C(=O)O)NC(=O)CN2CCN(CC(=O)[O-])CCN(CC(=O)[O-])CCN(CC(=O)[O-])CC2)cc1C(C)C.[177Lu+3]` (mixture of isomers): “tumour-to-large intestine ratio” 3.99 (mouse HT-29 xenograft; 4 h, biodistribution; reference: tumour over large intestine).
With `CC[C@H](C)[C@H](NC(=O)CNC(=O)[C@H](C)NC(=O)[C@H](CC(=O)O)NC(=O)[C@H](CO)NC(=O)[C@H](C)NC(=O)[C@H](CC(C)C)NC(=O)[C@H](CCCCN)NC(=O)[C@H](CCCCN)NC(=O)[C@H](CCSC)NC(=O)[C@H](CC(N)=O)NC(=O)[C@H](Cc1ccccc1)NC(=O)[C@H](CC(=O)O)NC(=O)[C@@H](N)CCSC)C(=O)N[C@@H](Cc1c[nH]c2ccccc12)C(=O)N[C@@H](Cc1ccccc1)C(=O)N[C@H](C(=O)N[C@@H](CCCNC(=N)N)C(=O)N[C@@H](C)C(=O)N[C@H](C(=O)N[C@@H](CCC(N)=O)C(=O)N[C@@H](Cc1ccccc1)C(=O)N[C@H](C(=O)N[C@@H](CCC(=O)O)C(=O)N[C@@H](CCC(=O)O)C(=O)N[C@@H](CCCCN)C(=O)N[C@@H](Cc1ccccc1)C(=O)NCC(=O)N[C@@H](CCC(N)=O)C(=O)N[C@@H](C)C(N)=O)[C@@H](C)O)C(C)C)[C@@H](C)O` the helical content was 36% (circular dichroism; 100% DOPS liposomes; 1 mM lipid).
The tissue uptake of `COc1cccc(OC)c1-c1cc(C(=O)NC2(C(=O)O)C3CC4CC(C3)CC2C4)nn1-c1ccc(C(=O)N(C)CCCN(C)C(=O)[C@H](CCCCNC(=O)[C@H](CC(C)C)NC(=O)C2OC2C(=O)O)NC(=O)CN2CCN(CC(=O)[O-])CCN(CC(=O)[O-])CCN(CC(=O)[O-])CC2)cc1C(C)C.[177Lu+3]` (mixture of isomers) is reported as 1.7 %ID/g (mouse, HT-29 xenograft, lung; 24 h post injection).
`Cc1cc(-c2ccc(C(=O)[C@@H]3CCCC[C@H]3C(=O)Nc3cnn4c3C(=O)NCC4)cc2)[nH]n1`: “recovery of radioactivity” 83.1% and 86.3% and 82.6% and 90.4% and 80% and 88.8% (human, urine and faeces; oral, 200 mg; reference: dose).
With `Cc1nc(N)nc2c1C(=O)N[C@@H](c1ccc(F)cc1-c1cccc(O[11CH3])n1)C2` the SUV was 2.7 ± 0.1 (ex vivo biodistribution; mice, U87 subcutaneous xenograft, pancreas; 60 min post-injection, baseline, vehicle pre-treatment).
The AUC(0-t) of `Cc1cccc(Cn2ncc3c4cc(F)c(CN(C)C)cc4n(C)c3c2=O)n1` is reported as 1930 ng·h/mL (Sprague-Dawley rat, plasma; intravenous, 5 mg/kg).
`CCC(C(=O)Nc1ccc(C(N)=O)c(F)c1)n1cc(OC)c(-c2cc(Cl)ccc2-n2cc(C(F)(F)F)nn2)cc1=O` (stereo not drawn): “subjects with moderate adverse event” 0% (male humans; oral, 25 mg, fasted).
For `COc1cccc(OC)c1-c1cc(C(=O)NC2(C(=O)O)C3CC4CC(C3)CC2C4)nn1-c1ccc(C(=O)N(C)CCOCCN(C)C(=O)[C@H](CCCCNC(=O)[C@H](CC(C)C)NC(=O)C2OC2C(=O)O)NC(=O)CN2CCN(CC(=O)[O-])CCN(CC(=O)[O-])CCN(CC(=O)[O-])CC2)cc1C(C)C.[177Lu+3]` (mixture of isomers), “tumour-to-small intestine ratio” read 6.64 (mouse HT-29 xenograft; 4 h, biodistribution; reference: tumour over small intestine).
`CCC1CNC(CC)CN(C(C(=O)[O-])c2ccc(C(=O)[O-])cc2)C(CC)CN(CC(=O)[O-])C(CC)CN1.[Mn+2]` (stereo not drawn) gave a Mn uptake of 1.37 ± 0.11% (ICP-MS; BALB/c mice, kidney; intravenous, 0.05 mmol/kg, 30 min; reference: injected dose).
`OC[C@H]1O[C@@H](n2cnc3c(SCc4ccccc4)nc(Cl)nc32)C[C@@H]1O` gave a solubility of 0.0168 mM (≈ 6.6 µg/mL) (UV absorbance; culture medium; stock diluted to 0.40 mM).
With `CC(C)(C)C(=O)Nc1ccc2[nH]c(CN3CCC(N(CCCN4CCOCC4)CC4OC(n5cnc6c(N)ncnc65)C(O)C4O)CC3)nc2c1` (stereo not drawn) the concentration was 1100 ng/mL (male Sprague-Dawley rat, plasma; intraperitoneal, 20 mg/kg, 1 h).
`CC[C@H](C)[C@@H]1NC(=O)[C@H](Cc2ccc(O)cc2)NC(=O)CCCSC[C@@H](C(=O)N(CC(=O)N[C@@H](CC(C)C)C(=O)NCC(N)=O)Cc2ccc(F)cc2)NC(=O)[C@H](CC(N)=O)NC(=O)[C@H](CCC(N)=O)NC1=O` has a terminal half-life of 39.6 min (healthy women, plasma; intranasal, 400 µg single dose).

For quick reference, copied from above:
The tissue uptake of `COc1cccc(OC)c1-c1cc(C(=O)NC2(C(=O)O)C3CC4CC(C3)CC2C4)nn1-c1ccc(C(=O)N(C)CCCN(C)C(=O)[C@H](CCCCNC(=O)[C@H](CC(C)C)NC(=O)C2OC2C(=O)O)NC(=O)CN2CCN(CC(=O)[O-])CCN(CC(=O)[O-])CCN(CC(=O)[O-])CC2)cc1C(C)C.[177Lu+3]` (mixture of isomers) is reported as 1.7 %ID/g (mouse, HT-29 xenograft, lung; 24 h post injection).
`CCC(C(=O)Nc1ccc(C(N)=O)c(F)c1)n1cc(OC)c(-c2cc(Cl)ccc2-n2cc(C(F)(F)F)nn2)cc1=O` (stereo not drawn): “subjects with moderate adverse event” 0% (male humans; oral, 25 mg, fasted).
